Experimental data of several laboratories.
Lines come from different studies, so protocols differ. Numbers after ± are the reported error.
Cell line: 4T1

SMILES | test | conditions | scale | endpoint | result
CC(=O)O[C@H]1C[C@@H]2[C@@]3(C)C=CC(=O)C(C)(C)[C@H]3C[C@@H](O)[C@@]2(C)C2=CC[C@@H](c3ccoc3)[C@@]21C | cell growth or viability, MTT | 48 h |  | IC50 | 105 µM
CCNS(=O)(=O)c1ccc(COc2ccc3nc4ccc(=O)cc-4oc3c2)cc1 | DDR2 signalling, Western blot | 1 µM, 6 h, added: collagen I 2 mg/mL |  | SNAIL1 protein stabilization | inhibited
Fc1ccc(-c2noc(-c3cccs3)c2C(F)(F)F)cc1 | cell growth or viability, MTT | 48 h |  | IC50 | 17.3 µM
FC(F)(F)c1ccc(Cc2c[nH]c3ncc(C(F)(F)F)cc23)cc1 | cell growth or viability, MTT | 10 µM, 72 h |  | inhibition | 17%
CC(=O)Nc1ccc(OC(=O)CCC(=O)[O][Pt-2]23([O]C(=O)CCC(=O)Oc4ccc(NC(C)=O)cc4)([NH2+][C@@H]4CCCC[C@H]4[NH2+]2)[O]C(=O)C(=O)[O]3)cc1 | Western blot, item: NLRP3 | 2 µM, 24 h | reference: untreated control, upregulation | protein level | ~1.7 fold
Cn1cncn1.[Ru+2].c1cc(-c2ccc3ccccc3n2)nc(-c2ccc3ccccc3n2)c1.c1ccc2cc3nc4c5cccnc5c5ncccc5c4nc3cc2c1 | cell viability, MTT | 4 h, dark |  | EC50 | 30 ± 5 µM
FC1(F)Oc2ccc(Cc3c[nH]c4ncc(C(F)(F)F)cc34)cc2O1 | cell growth or viability, MTT | 10 µM, 72 h |  | inhibition | 22%
Cc1ccc(-c2noc(-c3cccs3)c2C(F)(F)F)cc1 | cell growth or viability, MTT | 48 h |  | IC50 | 31.2 µM
CC(=O)Oc1c2c(c3ccc4c(c3c1OC(C)=O)C=CC(=O)C4(C)C)OC[C@@H]2C |  | concentration not given, 24 h |  | Fe2+ level | increased
COc1cccc(C(O)c2c[nH]c3ncc(C(F)(F)F)cc23)c1 (stereo not shown) | cell growth or viability, MTT | 10 µM, 72 h |  | inhibition | 16%
FC(F)(F)c1c(-c2ccc(Br)cc2)noc1-c1cccs1 | cell growth or viability, MTT | 48 h |  | IC50 | 31.7 µM
COc1cc(Cc2c[nH]c3ncc(C(F)(F)F)cc23)cc(OC)c1 | DCFH-DA flow cytometry | concentration not given, 24 h |  | ROS level | increased
Clc1ccc2ccc3[n+](c2c1)[Ir-3]12([c]4ccccc4-3)([c]3ccccc3-c3ccc4ccc(Cl)cc4[n+]31)[n+]1ccccc1-c1cccc[n+]12.F[P-](F)(F)(F)(F)F | cell migration, Transwell | 0.3 µM, 24 h |  | inhibition | 73%
